Measured values gathered from unrelated publications.
Each line is one published result; not all experiments were run side by side. Values joined by “and” are separate records of one study, mostly repeats; a detail may differ.

| SMILES | cell line | test | system | setting | scale | quantity | result |
| --- | --- | --- | --- | --- | --- | --- | --- |
| Cn1cc2cc(C(F)(F)c3nnc4ccc(-c5cnn(C6CC6)c5)nn34)c(F)cc2n1 | MKN-45 | CCK-8 | – | 0.2 µM, 72 h | reference: untreated | viability | 5.47% and 5.55% and 6.33% |
| CC(C)C[C@@H](NC(=O)[C@H](N)CCCCN)C(=O)N1CCC[C@@H]1C(=O)N[C@H](Cc1ccccc1)C(=O)N[C@H](Cc1ccccc1)C(=O)N[C@H](C)C(=O)N[C@H](CCC(=O)O)C(N)=O | NGF-differentiated PC-12 neurons | – | – | 10 µM, 24 h | reference: untreated | viability | 98.1% |
| CN(C)c1ccc(C(Nc2nc3c(-c4ccc([N+](=O)[O-])cc4)nn(-c4ccccc4)c3s2)P(=O)(Oc2ccccc2)Oc2ccccc2)cc1 (stereo not drawn) | BNL mouse liver cells | SRB | – | 1 µM, 10% fetal bovine serum | – | viability | 92.8% |
| CC(C)C[C@@H](N)C(=O)N[C@H](Cc1ccccc1)C(=O)N[C@H](Cc1ccccc1)C(=O)N[C@H](C)C(=O)N[C@H](CCC(=O)O)C(N)=O | NGF-differentiated PC-12 neurons | – | – | 5 µM, 24 h | reference: untreated | viability | 89% |
| Cc1cccc2c(CNCC3(N4CCCC4)COC3)c[nH]c12 | HEK | – | – | 30 µM, 48 h, 10% FBS | reference: DMSO | viability | 0.437% |
| CC(C)C[C@@H](NC(=O)[C@H](N)CCCCN)C(=O)N[C@H](CC(C)C)C(=O)N[C@H](Cc1ccccc1)C(=O)N[C@H](Cc1ccccc1)C(=O)N[C@H](C)C(=O)N[C@H](CCC(=O)O)C(N)=O | NGF-differentiated PC-12 neurons | – | – | 160 µM, 24 h | reference: untreated | viability | 98% |
| O=C1CCP(=S)(c2ccccc2)CC1 | SW-620 | trypan blue | – | IC50, 72 h | – | viability | 98% |
| CC(C)C[C@H](NC(=O)[C@H](C)NC(=O)[C@@H](NC(=O)[C@H](CCCNC(=N)N)NC(=O)[C@H](CC(C)C)NC(=O)[C@H](Cc1c[nH]c2ccccc12)NC(=O)[C@@H]1CCCN1C(=O)[C@@H](N)CCCCN)C(C)C)C(=O)N[C@@H](CS)C(=O)N1CCC[C@H]1C(=O)NCC(=O)O | HEp-2 | WST-1 | – | 64 µM, 24 h | – | viability | 106% and 99.1% and 101% |
| COc1ccc(Nc2nn3c(-c4ccccc4)ccnc3c2C(=O)Nc2ccccc2)cc1 | WI-38 | MTT | serum-free medium | 62.50 µg/mL, 48 h | – | viability | 76.7% |
| Cc1cccc2[nH]cc(CNCC3(N4CCCC4)COC3)c12 | HEK | – | – | 30 µM, 48 h, 10% FBS | reference: DMSO | viability | 23.4% |
| COc1ccc(Nc2nn3c(-c4ccccc4)ccnc3c2C(=O)Nc2ccc(Cl)cc2)cc1 | WI-38 | MTT | serum-free medium | 125.00 µg/mL, 48 h | – | viability | 81.8% |
| COc1cccc(-c2ccc(CN3CCCC(c4nc5ccc(C)cc5c(=O)[nH]4)C3)cc2)c1 (stereo not drawn) | Vero-E6 | CellTiter-Glo ATP | – | 72 h, second round 5-point | reference: DMSO 0%, hyamine -100%, more negative, more toxic | maximum response | 6.16% |
| CC(C)C[C@@H](NC(=O)[C@H](N)CCCCN)C(=O)N[C@H](CC(C)C)C(=O)N[C@H](Cc1ccccc1)C(N)=O | NGF-differentiated PC-12 neurons | – | – | 40 µM, 24 h | reference: untreated | viability | 98.6% |
| O=[N+]([O-])c1ccc(-c2nn(-c3ccccc3)c3sc(NC(c4ccccc4O)P(=O)(Oc4ccccc4)Oc4ccccc4)nc23)cc1 (stereo not drawn) | BNL mouse liver cells | SRB | – | 0.1 µM, 10% fetal bovine serum | – | viability | 102% |
| O=C(NCCCN1CCCCC1)c1cc(Sc2ccc(Cl)cc2)nc2ccccc12 | Vero-E6 | CellTiter-Glo ATP | – | concentration not given, 72 h, second round 5-point | reference: DMSO 0%, hyamine -100%, more negative, more toxic | cytotoxicity efficacy | -16.7% |

A few entries again:
| SMILES | cell line | test | system | setting | scale | quantity | result |
| --- | --- | --- | --- | --- | --- | --- | --- |
| COc1cccc(-c2ccc(CN3CCCC(c4nc5ccc(C)cc5c(=O)[nH]4)C3)cc2)c1 (stereo not drawn) | Vero-E6 | CellTiter-Glo ATP | – | 72 h, second round 5-point | reference: DMSO 0%, hyamine -100%, more negative, more toxic | maximum response | 6.16% |
